# Results of several laboratories.
# Parts stem from different laboratories: compare values within a part only. Changes are numbered by the printed parent chain.

# Set 1 — target: CEP164, C-terminal peptide (human); technique: DHFR complementation, deep sequencing; sample: yeast; relative to: wild type; direction: higher = weaker binding
# Notes: single substitutions, model-inferred values
# Starting sequence: PDZK1, PDZ domain 2 (human); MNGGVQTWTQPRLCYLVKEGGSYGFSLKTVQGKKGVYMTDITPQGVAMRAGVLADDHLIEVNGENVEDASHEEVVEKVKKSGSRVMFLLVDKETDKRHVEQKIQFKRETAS; partner HNRVKVYRF
Variant,binding free energy change [kcal/mol]
E100Q,-0.11
Y37L,0.54
L13Q,-0.0849
T94L,-0.108
S83I,0.218
V30D,0.196
E60V,0.242
P11W,0.382
I59S,1.25
V30A,0.0853
K79E,0.736
K18H,0.681
R97W,-0.069
D68L,0.0767
E19D,0.0279
T42W,0.532
V52T,1.5
E73G,0.401
Q101L,0.0147
Q10C,0.147
L16H,1.41
K34P,0.216

# Set 2 — target: CREB3L4, bZIP domain (human); technique: DHFR protein complementation; sample: yeast; relative to: wild-type JUN-FOS pair; direction: higher = stronger binding
# Notes: single substitutions, most at no-binding floor
# Starting sequence: JUN, bZIP domain (human); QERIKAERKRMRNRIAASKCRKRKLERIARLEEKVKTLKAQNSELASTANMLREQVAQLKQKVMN; partner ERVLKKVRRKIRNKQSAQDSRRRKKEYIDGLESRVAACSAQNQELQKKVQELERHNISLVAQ
Variant,binding fitness [natural log]
I28A,-1.48
K34P,-1.49
K34S,-1.38
S43Q,-1.4
L31N,-1.62
T48W,-1.34
A49R,-1.52
I28S,-1.48
M51K,-1.49
T37C,-1.15
V56M,-1.33
L52K,-1.42
N42K,-1.4
N42A,-1.5
R53T,-1.48
V35E,-1.41
L45K,-1.46
A29N,-1.41
E32T,-1.44
K34D,-1.49
V35S,-1.43
A49K,-1.04
V56L,-1.53
Q41G,-1.52
S43Y,-1.45

# Set 3 — technique: DHFR PCA, deep sequencing; sample: yeast; added: (+)-ABA 0.11 µM; relative to: wild-type fitted maximum; direction: higher = stronger binding
# Target: ABI1, truncated, D143A, DHFR fusion (Arabidopsis thaliana)
# Notes: methotrexate growth selection, single substitutions
# Starting sequence: PYL1, truncated, DHFR fusion (Arabidopsis thaliana); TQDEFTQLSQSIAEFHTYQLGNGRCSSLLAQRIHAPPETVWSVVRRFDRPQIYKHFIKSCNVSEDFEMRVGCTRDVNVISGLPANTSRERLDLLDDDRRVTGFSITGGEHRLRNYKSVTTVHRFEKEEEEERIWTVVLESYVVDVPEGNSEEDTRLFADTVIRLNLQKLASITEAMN; partner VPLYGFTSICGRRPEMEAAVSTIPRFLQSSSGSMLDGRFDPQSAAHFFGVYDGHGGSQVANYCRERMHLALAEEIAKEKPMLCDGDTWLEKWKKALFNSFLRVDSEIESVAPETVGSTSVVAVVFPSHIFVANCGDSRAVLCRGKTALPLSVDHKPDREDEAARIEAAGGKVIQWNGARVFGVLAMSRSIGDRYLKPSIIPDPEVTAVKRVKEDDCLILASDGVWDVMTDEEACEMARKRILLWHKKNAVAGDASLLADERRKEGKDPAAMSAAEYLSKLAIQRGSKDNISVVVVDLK
Variant,relative binding score [%]
P146E,-4.32
V142D,17.9
S150V,6.94
H110K,32.1
D92K,-10.3
F5T,10.3
R45E,-4.41
D3S,25.6
L112T,-9.4
T120Y,-7.38
E14L,3
T154K,-8.94
K54M,0.806
I57N,-8.32
E89M,9.93
Q51A,31.6
V118I,28.8
R74W,4.06
T135S,19.6
T39Q,17.8

# Set 4 — technique: aptamer microarray, sandwich; molecule type: DNA with 2'F-ANA; sample: in vitro; tested at: 200 nM; added: Cy3 exosite-II aptamer, 400 nM; direction: higher = stronger binding; oligonucleotide: GGTTGGTGTGGTTGG
# Target: Prothrombin, mature alpha-thrombin (F2, Homo sapiens, UniProt P00734)
# Notes: whole 15-mer aptamer, many near background
Modification,mean fluorescence intensity [a.u.]
2'F-ANA at 1 2 3 6 10 12 14 15,228
2'F-ANA at 5 6 7,82.4
2'F-ANA at 6 9 10 12 15,176
2'F-ANA at 1 4 6 10 11 12 13 14,45.4
2'F-ANA at 3 8 9 10 11 14 15,353
2'F-ANA at 3 6 7 8 9 10 11 12 13 14,338
2'F-ANA at 2 4 5 6 9 10 13 14,47.2
2'F-ANA at 1 2 3 7 10,66.6
2'F-ANA at 1 4 6 7 9 10 12 13 15,233
2'F-ANA at 2 4 5 8 9 10 12 14,62.4
2'F-ANA at 1 3 4 5 6 9 12 14,46.7
2'F-ANA at 4 5 7 11 15,56
2'F-ANA at 2 4 8 9 14 15,92.6
2'F-ANA at 1 2 3 5 6 7 8 11 12 13 15,83.1
2'F-ANA at 2 5 6 11 12 15,109
2'F-ANA at 2 4 5 6 9 10 11 12 14 15,48.1
2'F-ANA at 1 3 4 5 7 8 9 10 12 13,49.1
2'F-ANA at 2 3 4 5 8 9 13,66

# Set 5 — target: CCND2, cyclin fold, Cln2 fusion (human); technique: yeast growth competition, sequencing; sample: yeast; notes: weak parent motif; relative to: not given; direction: higher = stronger binding
# Starting sequence: LLGL2 docking peptide (human); KSLKKSLRQSFRR; partner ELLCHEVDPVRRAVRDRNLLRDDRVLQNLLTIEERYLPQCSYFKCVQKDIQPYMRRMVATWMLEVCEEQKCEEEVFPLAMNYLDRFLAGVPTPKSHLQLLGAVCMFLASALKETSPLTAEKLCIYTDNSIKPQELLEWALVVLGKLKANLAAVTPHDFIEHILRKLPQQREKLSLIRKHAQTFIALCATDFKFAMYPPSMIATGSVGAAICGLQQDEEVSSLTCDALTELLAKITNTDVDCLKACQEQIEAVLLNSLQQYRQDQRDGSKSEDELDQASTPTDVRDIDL
Variant,normalised enrichment score
S6A,-0.728
R12A,-0.296
R13A,0.19
K1A,-0.0583
Q9A,0.254
S2A,0.0593
L7A,-0.148

# Further values, each from its own experiment
Substance,target,test,system,setting,how to read,endpoint,value
"PhoQ, residues 284 288 289 292 302 303 SLANIV","PhoP, residues 12 14 15 18 19 VHSCL (Escherichia coli, UniProt P23836)","Sort-seq, measured: YFP reporter",E. coli,"PhoQ-PhoP variant library, added: 10 µM Mg2+","relative to: high Mg2+ state, higher = stronger signaling",fold induction,14.7

# Some of these lines once more (set 1):
Variant,binding free energy change [kcal/mol]
E60V,0.242
P11W,0.382
I59S,1.25
V30A,0.0853
K79E,0.736
K18H,0.681
R97W,-0.069
D68L,0.0767
E19D,0.0279
T42W,0.532
